Results gathered from unrelated publications.
A part holds a random share of what one study measured. Positions count from the first letter of the parent shown.
UniProt P61081, sequence (whole entry, looked up): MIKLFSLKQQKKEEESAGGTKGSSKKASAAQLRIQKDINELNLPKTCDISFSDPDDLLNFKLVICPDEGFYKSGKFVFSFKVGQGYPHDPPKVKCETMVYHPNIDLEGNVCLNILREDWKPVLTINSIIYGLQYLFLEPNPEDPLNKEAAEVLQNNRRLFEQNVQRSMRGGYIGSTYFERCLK
UniProt Q9H832, sequence (whole entry, looked up): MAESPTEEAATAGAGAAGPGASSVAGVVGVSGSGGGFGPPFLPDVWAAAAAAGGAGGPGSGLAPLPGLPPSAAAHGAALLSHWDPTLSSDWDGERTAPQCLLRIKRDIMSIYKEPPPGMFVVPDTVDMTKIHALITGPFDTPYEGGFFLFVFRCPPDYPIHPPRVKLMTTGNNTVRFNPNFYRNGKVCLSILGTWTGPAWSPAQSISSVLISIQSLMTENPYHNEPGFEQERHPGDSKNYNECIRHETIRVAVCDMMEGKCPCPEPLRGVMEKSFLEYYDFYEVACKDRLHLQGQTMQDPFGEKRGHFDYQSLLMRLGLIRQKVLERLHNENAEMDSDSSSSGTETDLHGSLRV
UniProt Q969T4, sequence (whole entry, looked up): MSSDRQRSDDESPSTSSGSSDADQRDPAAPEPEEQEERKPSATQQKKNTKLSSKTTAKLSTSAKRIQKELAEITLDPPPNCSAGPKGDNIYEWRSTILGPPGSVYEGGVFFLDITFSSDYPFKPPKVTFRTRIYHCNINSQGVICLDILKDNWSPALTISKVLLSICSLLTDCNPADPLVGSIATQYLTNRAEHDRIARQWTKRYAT
UniProt P63146, sequence (whole entry, looked up): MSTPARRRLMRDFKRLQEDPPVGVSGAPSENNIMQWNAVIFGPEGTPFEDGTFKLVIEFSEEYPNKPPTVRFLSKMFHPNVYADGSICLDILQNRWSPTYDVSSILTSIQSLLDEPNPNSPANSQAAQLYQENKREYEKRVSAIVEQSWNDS
UniProt O00762, sequence (whole entry, looked up): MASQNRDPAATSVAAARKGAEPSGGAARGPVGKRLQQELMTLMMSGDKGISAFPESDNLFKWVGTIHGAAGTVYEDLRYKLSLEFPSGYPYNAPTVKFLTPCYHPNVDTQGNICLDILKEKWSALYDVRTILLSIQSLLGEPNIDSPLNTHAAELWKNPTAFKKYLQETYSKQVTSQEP
UniProt Q9Y385, sequence (whole entry, looked up): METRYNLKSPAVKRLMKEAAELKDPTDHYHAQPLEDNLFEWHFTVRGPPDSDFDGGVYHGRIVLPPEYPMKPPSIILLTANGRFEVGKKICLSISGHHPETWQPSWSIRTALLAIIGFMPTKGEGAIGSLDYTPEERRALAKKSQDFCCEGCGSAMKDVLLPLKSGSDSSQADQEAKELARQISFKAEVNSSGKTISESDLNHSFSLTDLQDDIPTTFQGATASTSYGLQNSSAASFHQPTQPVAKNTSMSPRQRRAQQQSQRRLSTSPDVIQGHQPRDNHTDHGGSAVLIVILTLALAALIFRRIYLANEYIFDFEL
UniProt Q7Z7E8, sequence (whole entry, looked up): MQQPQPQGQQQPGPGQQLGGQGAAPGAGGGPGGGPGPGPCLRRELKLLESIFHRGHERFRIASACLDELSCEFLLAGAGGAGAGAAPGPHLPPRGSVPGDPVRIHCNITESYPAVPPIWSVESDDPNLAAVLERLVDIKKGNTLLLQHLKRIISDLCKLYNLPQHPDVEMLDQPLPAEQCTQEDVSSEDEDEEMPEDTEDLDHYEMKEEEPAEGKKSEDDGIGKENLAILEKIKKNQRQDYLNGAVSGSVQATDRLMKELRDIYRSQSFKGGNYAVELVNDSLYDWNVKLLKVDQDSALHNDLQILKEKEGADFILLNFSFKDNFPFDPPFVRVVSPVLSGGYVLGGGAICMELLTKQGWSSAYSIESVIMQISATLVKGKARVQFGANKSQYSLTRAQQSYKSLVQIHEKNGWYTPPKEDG
UniProt P68036, sequence (whole entry, looked up): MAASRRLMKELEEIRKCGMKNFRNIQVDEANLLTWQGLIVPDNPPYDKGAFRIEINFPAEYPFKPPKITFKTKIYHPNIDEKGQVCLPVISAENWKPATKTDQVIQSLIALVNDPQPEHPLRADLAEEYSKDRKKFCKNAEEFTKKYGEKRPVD
UniProt Q9NPD8, sequence (whole entry, looked up): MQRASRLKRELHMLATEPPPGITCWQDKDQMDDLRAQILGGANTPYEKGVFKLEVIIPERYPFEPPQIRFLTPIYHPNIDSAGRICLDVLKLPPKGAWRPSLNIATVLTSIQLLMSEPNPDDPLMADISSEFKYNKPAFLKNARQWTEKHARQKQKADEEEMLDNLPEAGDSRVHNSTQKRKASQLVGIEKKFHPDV

Set 1
Target: CREB3, bZIP domain (human)
Technique: DHFR protein complementation
Matrix: yeast
Notes: single substitutions, most at no-binding floor
Baseline: wild-type JUN-FOS pair
Direction: higher = stronger binding
Starting sequence: JUN, bZIP domain (human); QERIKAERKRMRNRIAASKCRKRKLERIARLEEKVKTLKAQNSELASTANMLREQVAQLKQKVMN; partner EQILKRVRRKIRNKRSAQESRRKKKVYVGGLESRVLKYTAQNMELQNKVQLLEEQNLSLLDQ
Substitution | binding fitness [natural log]
S47R | -1.43
E54A | -1.41
R30I | -1.46
V35D | -1.5
A49R | -1.39
E33T | -1.29
R53G | -1.49
A29M | -1.58
S47A | -1.34
K39W | -1.48
Q41I | -1.38
Q41R | -1.46
A46P | -1.56
E44A | -1.38
R30Y | -1.42
A29H | -1.48
L59R | -1.4
V56F | -1.53
I28F | -1.37
A29S | -1.35
E44P | -1.53
T48G | -1.47
L38H | -1.49
L45M | -1.55
V56M | -1.47

Set 2
Molecule: B1 (UHRF2 RING domain)
Technique: yeast two-hybrid
Matrix: yeast
Notes: mostly zero background
Baseline: not given
Direction: higher = stronger interaction
B1: UHRF2 RING domain (UniProt Q96PU4); chain CGGDPEKKCHSCSCRVCGGKHEPNMQLLCDECNVAYHIYCLNPPLDKVPEEEYWYCPSCKTDSSEVVKAGER
target | lacZ reporter activity
UBE2B UBC core domain (UniProt P63146) | 0
UBE2I UBC core domain (UniProt P63279) | 0
UBE2Z UBC core domain (UniProt Q9H832) | 0
UBE2T UBC core domain (UniProt Q9NPD8) | 0
UBE2L3 UBC core domain (UniProt P68036) | 0
UBE2E3 UBC core domain (UniProt Q969T4) | 0
UBE2J1 UBC core domain (UniProt Q9Y385) | 0
UBE2Q1 UBC core domain (UniProt Q7Z7E8) | 0
UBE2C UBC core domain (UniProt O00762) | 0
UBE2M UBC core domain (UniProt P61081) | 0

Set 3
Target: CCNF, cyclin fold, Cln2 fusion (human)
Technique: yeast growth competition, sequencing
Matrix: yeast
Notes: strong parent motif
Baseline: not given
Direction: higher = stronger binding
Starting sequence: CDKN1C docking peptide (human); TSACRSLFGPVDH
Substitution | normalised enrichment score
TSACRSLFGPVDA [H13A] | 5.58
TSACRSLLGPVDH [F8L] | 0.618
TSACRSLFGPADH [V11A] | 6.11
TSACRSLFGPVAH [D12A] | 6.22
TSACASAFGPVDH [R5A L7A] | -0.412
TSACRSLAGPVDH [F8A] | 0.411
TSACRALFGPVDH [S6A] | 5.39
TSACKSLLGPVDH [R5K F8L] | 0.524
TSACRSLFAPVDH [G9A] | 5.22

Set 4
Target: ABI1, truncated, D143A, DHFR fusion (Arabidopsis thaliana)
Technique: DHFR PCA, deep sequencing
Matrix: yeast
Notes: methotrexate growth selection, single substitutions
With: (+)-ABA 2500 µM
Baseline: wild-type fitted maximum
Direction: higher = stronger binding
Starting sequence: PYL1, truncated, DHFR fusion (Arabidopsis thaliana); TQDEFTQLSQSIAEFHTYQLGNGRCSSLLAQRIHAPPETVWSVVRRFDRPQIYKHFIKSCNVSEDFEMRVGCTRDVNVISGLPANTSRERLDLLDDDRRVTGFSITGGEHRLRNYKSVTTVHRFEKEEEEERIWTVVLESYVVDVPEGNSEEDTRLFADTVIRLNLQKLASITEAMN
Substitution | relative binding score [%]
I52P | 78.7
N114V | 28.6
R24V | 99.6
D144S | 89.1
R163D | 78.5
R111G | 73.3
S104W | 46.7
E131Y | 99
L29I | 94.9
L29Q | 94.5
T106F | 106
T73G | 90.3
M176L | 96.8
D144K | 88.6
F5P | 101
E109D | 108
R46T | 84.3
Q10A | 104
F124M | 106
E89V | 10.2
Q31S | 76.7
E109K | 99.8
R74I | 8.02
G81F | 60.1
S26N | 95.5

A few entries again (set 2):
target | lacZ reporter activity
UBE2E3 UBC core domain (UniProt Q969T4) | 0
UBE2J1 UBC core domain (UniProt Q9Y385) | 0
UBE2M UBC core domain (UniProt P61081) | 0
UBE2T UBC core domain (UniProt Q9NPD8) | 0
UBE2B UBC core domain (UniProt P63146) | 0
UBE2C UBC core domain (UniProt O00762) | 0
UBE2Z UBC core domain (UniProt Q9H832) | 0
UBE2L3 UBC core domain (UniProt P68036) | 0
UBE2I UBC core domain (UniProt P63279) | 0
